Measured values of several laboratories.
Every numbered part comes from another study and shows a few of its results, in no order. Substitutions count along the parent as printed.

Study 1 — method: RNA Bind-n-Seq; form: RNA; sample: in vitro; concentration: 365 nM; relative to: no-protein control; reading: higher = stronger binding
Target: RNA binding protein fox-1 homolog 2, RRM domain, GST-SBP tag (RBFOX2, Homo sapiens, UniProt O43251-10, residues 100-194)
Setting: natural RNA segment, single round, ends assumed
Constant ends, left off below: GGGAGUUCUACAGUCCGACGAUC … UGGAAUUCUCGGGUGCCAA
Construct (chain): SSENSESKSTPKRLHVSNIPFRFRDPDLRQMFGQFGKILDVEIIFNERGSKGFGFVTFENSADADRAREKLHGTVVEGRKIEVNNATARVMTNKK
Sequence	RBNS enrichment (R)
CACUUAGCCCUGGUUGAGGUGCAUUGUCUGCUGUCGUCUGUUAAGCAUCUAACCGGAGUGGGAGGGCACAUCAAGCGAUUUCACUCUCUUAAAGAAAAGGUUUUUAGGUA	0.543
AUGAUUAAGUGCAUUUAAUAUUGGUAAUUUAAUGAAAACCAUUCCUUGCCCAAUGGAUGUAUAAAUUUUUGAAAGAAUAAGCAGAAUUAUAUAAUAUGAAAUGCUAUGUA	0.512
CUCCCCUUCCCCUUUCCUGCCCCAAGGCAGAUCCACAUCACCGAAGCUCCCUAGAGGGGCAAAAGAUGGAGUGAGCCACAGGAAGUUUGGGGCGUGGUGAGUUGGAAUGA	0.279
GAAACAGUUCGACUUCGGUUACUGCCUUCUCCCUUGAAAUCCUUGCUGCGUGCCCACCAGGAUUUCCUGUGAGGGCCCAGGAAUGAGCAAGGCAUGGUCUGCCACCAGCU	0.903
AUAAUGAGUCCUAUUUUUCUCUCACAUAAUAUGCAUUUGCUCUCCUAGGACAGUGUAAUACAUUUAUGUGAAGUAAAGACAUGCGAGACUGGUGGCCUGCAAAUAGCAUC	0.342
CCUUUCUGAGGCUUGGCUUUAGAAAUAACCUUUUGGAACAAACUAUAAAUAUUUCCUAGCAAGGAUCAUAAGCCCAAUUUCCGGAUUUGCCCCUCUGAGAAGCAUGAAUG	2.64
CAAAUGUAGUGUGUUUCCCUAACUUUCUGUUUUUCCUGAGAAAAAAAAAUAAAUCUUUUAUUCAAAUCAGGGUGUGAUAUGGGUCUUUUCUCAUCGACGCCUCUUUUUCC	0.422
AGCCCCCUCCCCCGCAGCCCGGAACCCACAUUGCCGGCGCAUCCUGGGUGGAGGCAGACCCCGAGCUCGGGGAAGGGGUUUUCCUGCCUUCACGACCCAGAUCUGUGCUG	0.839
GUGUUUCCCCAACUUCUCCCUUUUAGCAGGGUCCCUUUAGAGCCCAACUCCAGGUCAAAUCUGGAGCUCAAAUCCCAGUGCUCCCUCCCCAGGAGUGGGGCCCCAACUCU	0.358
GCACCACAGCAUGUUGUUAUGUGAGGAGGCAAUCUGGAUAGCAAGCAUGUACCACAAAACAGUAGUACUUUAACCCCUAAUGCCACGUCUCCCCAUCAGCUGCCGGUUUU	4.86
CAAUAGGGUUUAUUUGGCAGUGGGAUUCACAUCUUCCUGCACUCCUGCCAGCAGUACAGGGCACAGCCCAAGCCACCAUAGGCCAGCCUGGAGUCUUUUUCAUGCUCUGG	0.237
CUUAACUCAUGUCCCAUCUAUCCUCAGCUGGCCUUGGACCUACAUAGGAGUUGAAUGGGGAGGGGCUACAAUGGGUCUUCCUGUGGUUGGUCCUGAUGUUGUAUGUACUA	0.594

Study 2 — method: universal PBM; form: double-stranded DNA, one strand shown; sample: in vitro; concentration: not given; reading: higher = stronger binding
Target: Sal-like protein 4, full length isoform B (SALL4, Homo sapiens, UniProt Q9UJQ4-2, residues 1-616)
Setting: 8-mer, flanks averaged, mean of replicates
Construct (chain): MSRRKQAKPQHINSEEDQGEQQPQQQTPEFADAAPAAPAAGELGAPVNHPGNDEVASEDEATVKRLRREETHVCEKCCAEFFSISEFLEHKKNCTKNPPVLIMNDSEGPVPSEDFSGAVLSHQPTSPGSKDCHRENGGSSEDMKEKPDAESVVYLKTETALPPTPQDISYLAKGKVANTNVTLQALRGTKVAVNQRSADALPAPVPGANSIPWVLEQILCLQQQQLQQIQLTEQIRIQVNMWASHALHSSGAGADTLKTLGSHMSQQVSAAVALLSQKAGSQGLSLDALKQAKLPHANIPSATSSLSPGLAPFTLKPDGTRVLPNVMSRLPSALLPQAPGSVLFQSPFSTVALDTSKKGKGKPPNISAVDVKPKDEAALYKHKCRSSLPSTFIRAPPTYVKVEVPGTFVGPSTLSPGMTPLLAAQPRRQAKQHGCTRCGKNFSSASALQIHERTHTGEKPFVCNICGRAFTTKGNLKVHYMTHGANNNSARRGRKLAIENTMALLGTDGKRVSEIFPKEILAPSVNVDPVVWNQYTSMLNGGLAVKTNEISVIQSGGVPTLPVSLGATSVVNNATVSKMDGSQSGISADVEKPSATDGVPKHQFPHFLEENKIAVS
Sequence	E-score
AGACCTAG	-0.101
AACTGGTC	-0.182
GTGTTTCA	0.101
AGTCCGGG	-0.322
GCTGGGCA	-0.179
GAACTCTC	-0.161
GCAGGAAA	-0.054
AGGATTTG	-0.0215
AGCGACGG	-0.275
AAGTGCCA	-0.0208
AGCTCCGG	-0.279
AGAAGTCA	0.127
AGTAGTCA	0.0445
GATTTCGA	-0.0387
CGTCTCAA	0.0493
AGACTCTA	0.0305
GGACGGAA	-0.141
GCGATTCA	-0.215
AACACTCG	0.0108

Study 3 — method: RNA Bind-n-Seq; form: RNA; sample: in vitro; concentration: 200 nM; setting: whole 134-nt RNA, ends assumed; with: 150 mM KCl; relative to: input library; reading: higher = stronger binding
Target: Ras GTPase-activating protein-binding protein 1, full length (G3BP1, Homo sapiens, UniProt Q13283)
UniProt Q13283, sequence (whole entry, looked up): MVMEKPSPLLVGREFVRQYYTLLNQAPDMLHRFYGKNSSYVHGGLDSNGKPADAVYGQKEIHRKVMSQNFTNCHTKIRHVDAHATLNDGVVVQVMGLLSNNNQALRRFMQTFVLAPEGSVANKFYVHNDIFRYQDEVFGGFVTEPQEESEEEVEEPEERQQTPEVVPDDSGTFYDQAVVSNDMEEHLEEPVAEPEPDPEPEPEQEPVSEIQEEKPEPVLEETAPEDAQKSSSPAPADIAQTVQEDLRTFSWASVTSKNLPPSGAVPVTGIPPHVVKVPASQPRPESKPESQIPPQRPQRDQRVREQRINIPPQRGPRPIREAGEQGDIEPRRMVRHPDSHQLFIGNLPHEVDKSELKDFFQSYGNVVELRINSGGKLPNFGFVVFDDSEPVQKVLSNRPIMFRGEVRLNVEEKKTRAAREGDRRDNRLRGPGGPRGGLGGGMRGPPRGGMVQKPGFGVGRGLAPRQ
Constant ends, left off below: GGGAGUUCUACAGUCCGACGAUC … UGGAAUUCUCGGGUGUCAAGG
Sequence	log2 enrichment
UGGGAGGUGGAUUUUGUUUAUUUUUUUAGGUCAUUUCCAGGGGUGGGAAUUUUUUUUUAAUAUGUGUCAUGAAUAAAGUUGUUUUUGAAA	0.0911
GCAGGAAGUAAAAACAAAUGGAAAUGCUUCGGAUAGUGGCAGGGGUGGGGGUUGCUAAGGAAAGGGUGGGAUGGAAAUGGGUAAAGAGUU	1.05
UGGCCCUGGUGGCAUGCGGGGAGGAAGAGGUGGCCUCAAGGAUCGUGGUGGUCCCGGUGGAAUGUUCAGAGGUGGCCGUGGUGGAGACAG	0.372
UAACUUUAGAGGAGGAUCUGAUGGAUAUGGCAGUGGACGUGGAUUUGGGGAUGGCUAUAAUGGGUAUGUAGGAGGACCUGGAGGUGGCAA	0.232
UCAAGUCCUGUGCUACACAUCGUAUGUACCGAAUCGGGAGGGAGGGUUUUUGGGAAAGUAUUAUGUUACGCCGUUCGGAUCUGCACUUCC	0.793
UCAAGUCCUGUGCUACACAUCGUAUGUACCGAAUCGGAAAGGUUUUUUUGGUGGAAAGUAUUAUGUUACGCCGUUCGGAUCUGCACUUCC	-1.03
AGUCCUGUGCUACACAUCGUAUGUACCGAAUCGGAAAGGUUUUUUUGGAAAAAAAGGAAAGUAUUAUGUUACGCCGUUCGGAUCUGCACU	-1.68
AGUCCUGUGCUACACAUCGUAUGUACCGAAUCGGGAGGGUUUUUUUGGGAAAAAGGGAAAGUAUUAUGUUACGCCGUUCGGAUCUGCACU	-0.263
AGUCCUGUGCUACACAUCGUAUGUACCGAAUCGGGGAAAAAGGGGAGGGGAAAGGGGAAAGUAUUAUGUUACGCCGUUCGGAUCUGCACU	0.23
AGUCCUGUGCUACACAUCGUAUGUACCGAAUCGGGGCCCCGGGCCCCGGGGCCCCGGAAAGUAUUAUGUUACGCCGUUCGGAUCUGCACU	0.374
UGCCUGCUCCGGGCCCCGUGCUGGCGCCUACGCACCUGCAGACAGAGCUGGUGCUGAGGUGCCAGAAGGAGACCGACUGUGACCUCUGUC	-1.16
GCAGGAAGUAAAAACAAACGGAAAUGCUUCGGAUAGUGGCAGGGGUGGGGGUUGCUAAGGAAAGGGUGGGAUGGGAGUGGGUAAAGAGUU	0.905
UCCUGUGCUACACAUCGUAUGUACCGAAUCGGAAAAAAGGAAAAAAGGGGAAAAAAGGGAAAGUAUUAUGUUACGCCGUUCGGAUCUGCA	-0.682
CACAGACAACACGCACCCACACAGACACAGAGGGGAGGGGUUGGGAUGGGGACAGGGUGCACAGCAGGGCGGGGUAGGACCCCAGCCCCU	1.84

Study 4 — method: RNAcompete; form: RNA; sample: in vitro; concentration: 20 nM; setting: 7-mer, probes averaged, single round; relative to: mean of 7-mers; reading: higher = stronger binding
Target: PABPC1L2, full length, GST fusion (mouse, UniProt A0ABA7IW68)
Sequence	7-mer Z-score
ACGUGCC	-0.142
CGGGACG	-0.012
GGCGCCC	-0.32
UUGCUGA	-0.168
AAACCUC	0.262
AAAUGAA	1.05
UGCUUCG	-0.427
CUUCUAG	-0.3
UGAGGUG	0.0841
AUCUUAC	-0.146
CAAACGC	0.16
UCUACGG	-0.162
UCCUAAU	-0.295
UGUGUAU	-0.306
GCGUAAA	0.807
CCCGCGA	-0.139
GACGACU	-0.0246
UUGCUAG	-0.213
UGCCAUU	-0.338
CAGCUGC	-0.304
CUCCCGC	-0.356
UGGGAGG	0.225

Study 5 — target: CCNB1, cyclin fold, Cln2 fusion (human); method: yeast growth competition, sequencing; sample: yeast; setting: weak parent motif; relative to: not given; reading: higher = stronger binding
Parent: ANKRD17 docking peptide (human); PSVRRQLFVTVVK
Change	normalised enrichment score
R5K	0.328
R4A	0.992
Q6A	-0.0764
V9A	0.625
S2A	1.31
V11A	1.35
R5A	1.68

Study 6 — method: DHFR PCA, deep sequencing; sample: yeast; with: (+)-ABA 1.4 µM; relative to: wild-type fitted maximum; reading: higher = stronger binding
Target: ABI1, truncated, D143A, DHFR fusion (Arabidopsis thaliana)
Setting: methotrexate growth selection, single substitutions
Parent: PYL1, truncated, DHFR fusion (Arabidopsis thaliana); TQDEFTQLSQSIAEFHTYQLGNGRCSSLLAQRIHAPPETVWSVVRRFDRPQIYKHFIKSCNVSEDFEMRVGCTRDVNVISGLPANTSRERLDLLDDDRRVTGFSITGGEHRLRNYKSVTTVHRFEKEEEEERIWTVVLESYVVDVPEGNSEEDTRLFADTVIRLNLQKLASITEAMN; partner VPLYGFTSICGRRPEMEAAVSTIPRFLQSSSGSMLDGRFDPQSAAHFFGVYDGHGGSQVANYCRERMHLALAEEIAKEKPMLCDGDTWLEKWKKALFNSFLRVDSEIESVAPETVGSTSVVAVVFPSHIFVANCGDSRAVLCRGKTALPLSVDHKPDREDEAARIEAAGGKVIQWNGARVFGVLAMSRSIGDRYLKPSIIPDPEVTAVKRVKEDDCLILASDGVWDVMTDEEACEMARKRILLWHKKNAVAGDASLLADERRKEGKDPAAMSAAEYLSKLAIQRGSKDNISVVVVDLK
Change	relative binding score
C60D	-9.42%
V78N	23.6%
E38H	11.8%
E38I	13.5%
T17D	5.55%
M176T	40.9%
N177Q	49.7%
L29M	27.9%
V62C	11.5%
W41S	-20.5%
R155Y	-6.15%
T135M	-7.08%
L8K	-11.5%
Y53K	-20.5%
R98P	8.4%

Excerpt of the above (study 4):
Sequence	7-mer Z-score
GGCGCCC	-0.32
UUGCUGA	-0.168
AAACCUC	0.262
AAAUGAA	1.05
UGCUUCG	-0.427
CUUCUAG	-0.3
UGAGGUG	0.0841
AUCUUAC	-0.146
CAAACGC	0.16
UCUACGG	-0.162
UCCUAAU	-0.295
UGUGUAU	-0.306
GCGUAAA	0.807
